Experimental data collected from several papers.
Parts stem from different laboratories: compare values within a part only. Changes are numbered by the printed parent chain.

Block 1 — method: DHFR PCA, deep sequencing; matrix: yeast; together with: (+)-ABA 1.4 µM; reference: wild-type fitted maximum; reading: higher = stronger binding
Target: ABI1, truncated, D143A, DHFR fusion (Arabidopsis thaliana)
Setting: methotrexate growth selection, single substitutions
Starting sequence: PYL1, truncated, DHFR fusion (Arabidopsis thaliana); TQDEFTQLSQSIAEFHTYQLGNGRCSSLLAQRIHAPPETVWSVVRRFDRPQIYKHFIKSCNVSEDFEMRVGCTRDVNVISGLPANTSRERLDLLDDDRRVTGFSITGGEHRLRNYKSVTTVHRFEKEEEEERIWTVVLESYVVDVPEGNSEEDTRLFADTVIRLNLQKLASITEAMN
Substitution	relative binding score [%]
L138G	-4.45
V118W	5.75
T119E	-1.58
V137H	0.225
V121C	13.8
S140V	9.02
E174Y	-1.94
Q51L	-3.13
L82D	1.72
Q19H	65.1
M176G	47.2
L169S	-3.09
I79D	-10.3

Block 2 — target: CCNB2, cyclin fold, Cln2 fusion (human); method: yeast growth competition, sequencing; matrix: yeast; setting: strong parent motif; reference: not given; reading: higher = stronger binding
Starting sequence: E2F1 docking peptide (human); PPVKRRLDFETDH; partner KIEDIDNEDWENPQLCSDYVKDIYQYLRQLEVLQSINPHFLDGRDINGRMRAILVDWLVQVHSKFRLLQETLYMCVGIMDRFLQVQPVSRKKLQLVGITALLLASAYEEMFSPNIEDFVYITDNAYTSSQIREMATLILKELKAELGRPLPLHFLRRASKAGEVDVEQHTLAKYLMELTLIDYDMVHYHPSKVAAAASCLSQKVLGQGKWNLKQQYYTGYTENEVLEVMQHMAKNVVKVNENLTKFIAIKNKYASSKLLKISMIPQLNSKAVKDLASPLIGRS
Substitution	normalised enrichment score
PPVKRRLDFDTDH [E10D]	4.09
PPVKHRLDFETDH [R5H]	0.501
PPMKRRLDFETDH [V3M]	1.74
PPVKRRLDKETDH [F9K]	-0.154
PPVKRRVDFETDH [L7V]	0.317
PPVKRRLDDETDH [F9D]	-0.0366
PTVKRRLDFETDH [P2T]	3
PPVKKRLDFETDH [R5K]	2.53
PPSKRRLDFETDH [V3S]	0.604
PPVKRRLDFETVH [D12V]	3.66
PPWKRRLDFETDH [V3W]	0.762
PPVKRRGDFETDH [L7G]	-0.219
PPVKRRFDFETDH [L7F]	0.749
PPVKRRLDFESDH [T11S]	4.34
PPVKRRQDFETDH [L7Q]	0.489

Block 3 — method: protein-binding microarray; form: double-stranded DNA, one strand shown; matrix: in vitro; concentration: 250 nM; setting: 60-bp whole probe; together with: salmon DNA 0.4 mg/ml; reference: random background probes; reading: higher = stronger binding; all sequences stand within: GCCTAGCAC … GTCTTGATTCGCTTGACGCTGCTG
Target: Interferon regulatory factor 5, full length, phosphomimetic (IRF5, Homo sapiens, UniProt Q13568-2, residues 1-514, K96S/S451D/S453D/S456D/S462D)
Sequence	log fluorescence
TCACCTCTTTCTTTGCTACTGTGCTAG	1.09 z-score
TCACTTCCCAATAATCTTACTGTGCTA	0.803 z-score
TTACATTTCGGGTATCGATTAGTGCTA	7.49 z-score
GACGGTCTCGGATTCGGGACGTGCTAG	-0.169 z-score
TCAGTTTTCGCTTTCTTACTGTGCTAG	5.56 z-score
TCAGATTTACAAACTGTGACTGTGCTA	0.288 z-score
GACGATTTCGGACTGGGGACGTGCTAG	1.37 z-score
TTAGAACTGAGACTGGATTCGTGCTAG	-0.121 z-score
TCAACAATGGCTTTGCCACTGTGCTAG	-0.29 z-score
TTAGGACTGCTAGTGCTTTAGTGCTAG	-0.179 z-score
TTAGATATCGGGACAGGATTAGTGCTA	1.46 z-score
CTAGGTTTCGGGTATCGGTTAGTGCTA	9.28 z-score
GACCGTTTCCTTTCCCTGACGTGCTAG	1.15 z-score
TTTTTTTTTTCCCTGAAAAAGTGCTAG	1.83 z-score
GACGGTCTCGTACTGGGGACGTGCTAG	-0.321 z-score

Block 4 — method: Sort-seq; item: YFP reporter; matrix: E. coli; setting: PhoQ-PhoP variant library; together with: 10 µM Mg2+; reference: high Mg2+ state; reading: higher = stronger signaling
Molecule: PhoQ, residues 284 288 289 292 302 303 SMMNNA
target	fold induction
PhoP, residues 12 14 15 18 19 AYFRS (Escherichia coli, UniProt P23836)	4.88
PhoP, residues 12 14 15 18 19 SFCSL (Escherichia coli, UniProt P23836)	15.5
PhoP, residues 12 14 15 18 19 HHYTI (Escherichia coli, UniProt P23836)	0.648
